# Measured values from different studies.
# Each line is one published result; not all experiments were run side by side. Numbers after ± are the reported error.
# Cell line: PANC-1
Compound,test,setting,IC50
C=CCc1ccc(O)c(-c2ccc(O)c(CC=C)c2)c1,"cell proliferation, MTS","72 h, with: temozolomide 250 µM",5.01 µM
CC[C@H](C)C(=O)O[C@H]1C[C@@H](C)C=C2C=C[C@H](C)[C@H](CC[C@@H]3C[C@@H](O)CC(=O)O3)[C@H]21,"cell growth, SRB","72 h, 10% FBS",48.8 µM
COc1ccc(-c2ccoc2)c(/C=N/NC(=O)c2ccccc2O)c1O,cell growth or viability,72 h,0.765 µM
O=c1[nH]nc(O)c2c(-c3ccc(F)cc3)c3n(c12)CCn1cccc1-3,"cell growth or viability, MTT",48 h,66.4 µM
O=C(N/N=C/c1c(O)ccc2ccccc12)c1ccccc1O,cell growth or viability,72 h,1.07 µM
O=c1[nH]nc(O)c2c(-c3ccc(Br)cc3)c3n(c12)CCn1cccc1-3,"cell growth or viability, MTT",48 h,73.9 µM
Cn1nnc2c(C(N)=O)ncn2c1=O,"cell proliferation, MTS","72 h, with: 10 µM HNL",50.1 µM
COC(=O)c1c(-c2ccccc2O)c2n(c1C(=O)OC)CCn1cccc1-2,"cell proliferation, MTT",48 h,20.28 ± 0.01 µM
COc1ccc(-c2ccsc2)c(/C=N/NC(=O)c2ccccc2O)c1O,cell growth or viability,72 h,0.393 µM

# For quick reference, copied from above:
Compound,test,setting,IC50
CC[C@H](C)C(=O)O[C@H]1C[C@@H](C)C=C2C=C[C@H](C)[C@H](CC[C@@H]3C[C@@H](O)CC(=O)O3)[C@H]21,"cell growth, SRB","72 h, 10% FBS",48.8 µM
